Measured values of several laboratories.
Each numbered part is a random draw from the data of one study; scales do not carry over between parts.

Study 1
Target: Prothrombin, mature alpha-thrombin (F2, Homo sapiens, UniProt P00734)
Method: aptamer microarray, sandwich
Form: DNA with 2'F-ANA
Matrix: in vitro
Tested at: 200 nM
Setting: whole 15-mer aptamer, many near background
Together with: Cy3 exosite-II aptamer, 400 nM
Direction: higher = stronger binding
Strand: GGTTGGTGTGGTTGG
Modification	mean fluorescence intensity [a.u.]
2'F-ANA at 3 4 9 10 11 13 14 15	177
2'F-ANA at 3 5 6 7 9 10 11 13 14 15	51.4
2'F-ANA at 1 2 3 4 5 6 12 13 15	78
2'F-ANA at 1 2 3 9 10 12 13 15	93.7
2'F-ANA at 2 5 9 11 13 15	52.9
2'F-ANA at 1 2 3 5 9 11 13	47.7
2'F-ANA at 1 4 5 9 11 14	42.5
2'F-ANA at 5 7 9 10 13 14 15	63.7
2'F-ANA at 2 3 5 6 11 15	68.8
2'F-ANA at 1 2 3 7 9 11 13 15	153
2'F-ANA at 1 4 6 9 12 13	152
2'F-ANA at 2 4 5 8 11 14 15	49.4
2'F-ANA at 1 6 7 8	229
2'F-ANA at 2 3 5 7 11 12 14 15	55.3
2'F-ANA at 2 8 11 14	153
2'F-ANA at 1 2 3 4 5 6 7 9 10 12 13 14 15	53.2
2'F-ANA at 1 2 3 5 6 9 11 12 15	130
2'F-ANA at 7 9 10	207
2'F-ANA at 1 2 6 9 10 11 14 15	50.9
2'F-ANA at 2 3 4 7 9 10 11	264
2'F-ANA at 1 10 11 14	115

Study 2
Target: Interferon regulatory factor 7, full length, phosphomimetic (IRF7, Homo sapiens, UniProt Q92985, residues 1-503, S471D/S472D/S475D/S476D/S477D/S483D/S484D/S487D)
Method: protein-binding microarray
Form: double-stranded DNA, one strand shown
Matrix: in vitro
Tested at: 2200 nM top
Setting: 60-bp whole probe
Together with: salmon DNA 0.4 mg/ml
Baseline: random background probes
Direction: higher = stronger binding
Constant ends, left off below: GCCTAGCAC … GTCTTGATTCGCTTGACGCTGCTG
Construct (chain): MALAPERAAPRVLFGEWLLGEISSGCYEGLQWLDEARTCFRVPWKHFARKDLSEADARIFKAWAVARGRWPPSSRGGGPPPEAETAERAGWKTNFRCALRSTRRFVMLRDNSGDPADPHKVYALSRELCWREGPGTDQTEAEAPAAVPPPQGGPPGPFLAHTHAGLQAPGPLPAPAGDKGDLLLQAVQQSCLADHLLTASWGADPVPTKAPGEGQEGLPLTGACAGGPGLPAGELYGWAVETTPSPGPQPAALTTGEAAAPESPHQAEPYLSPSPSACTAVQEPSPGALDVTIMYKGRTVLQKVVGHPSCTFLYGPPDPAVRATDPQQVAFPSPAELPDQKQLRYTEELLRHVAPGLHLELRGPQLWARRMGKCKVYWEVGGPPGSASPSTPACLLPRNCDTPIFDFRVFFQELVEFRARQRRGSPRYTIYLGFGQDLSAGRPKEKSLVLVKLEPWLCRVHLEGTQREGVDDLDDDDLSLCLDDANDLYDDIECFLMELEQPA
Strand	fitted relative affinity [z-score]
TTAGAACTGGGGACTGGATTGGTGCTA	-0.459
GACGATTTCGGTCTCGGGACGTGCTAG	3.22
TTAGGACTGGGTTTCGGTTAGTGCTAG	3.9
TTAGATCTCAGACTGGATTAGTGCTAG	-0.156
TTAGGTATGGGGTATCGGTTAGTGCTA	0.0674
TCAACCATCTAGTTCTGACTGTGCTAG	0.692
TCAACTCTCTACATGGGACTGTGCTAG	0.89
CTGACCTTTTCCTGAGGCAGGTGCTAG	0.918
TTAGCTCTCAGTATCGATTAGTGCTAG	0.481
TTAGGTTTCCTTGCCCTTTAGTGCTAG	1.34
TTAGACTTCGGGTATCGATTAGTGCTA	0.0697
TCAGGTCACTCTCTGGGACTGTGCTAG	-0.0408
TCATATACCTGTATATCACTGTGCTAG	1.32
GACGAACTGGTGTATCGAGACGTGCTA	0.0922
TACGAACTGAGTTTCGAGACGTGCTAG	2.45
GACGGTTTACTACTGCTGACGTGCTAG	1.14
TCCAATTACCTTTTCACTTTGTGCTAG	3.11
TCACATCTGCAACATCTAACTGTGCTA	1.04
GACGTTTTCCTTATCCTGACGTGCTAG	3.43
TCTACTGTCTGTTTCCTCTTGTGCTAG	2.78
TTAGGTATCGACTACCGGTTAGTGCTA	0.415
GTAGGTTTCCTACTGCTTTAGTGCTAG	1.08
TTAGATTTCGGTTATCGATTAGTGCTA	3.93
GACGGATTGGACTTTCGGGACGTGCTA	2.51
TTCGGACTGGGACTGGGTTAGTGCTAG	-0.655

Study 3
Target: Histone acetyltransferase KAT6A, winged helix 2, GST fusion (KAT6A, Homo sapiens, UniProt Q92794, residues 85-181)
Method: protein binding microarray
Form: double-stranded DNA, one strand shown
Matrix: in vitro
Tested at: not given
Setting: 8-mer, flanks averaged, mean of 2 arrays, mostly near background
Baseline: not given
Direction: higher = stronger binding
Construct (chain): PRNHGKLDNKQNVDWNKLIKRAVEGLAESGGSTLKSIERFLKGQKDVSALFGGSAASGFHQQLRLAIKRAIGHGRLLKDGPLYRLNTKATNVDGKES
Strand	E-score
AGGTGTGA	-0.102
AAGCAAAC	-0.027
CATAAGCA	0.117
AGCCCTCA	0.0197
ATAACGCG	0.0141
CTTGCCAC	0.00114
CTTTCCGA	0.0598
CGAACACC	0.123
TATCTAGA	0.118
GGACATAC	-0.131
AGAATCGC	0.112
AGACGACG	-0.168
CGTTGCGC	0.0846
AATATCAA	0.0441
CCTTATGA	-0.0222
CATCTAGC	-0.0573
AACAGGTG	-0.127

Study 4
Target: Ras GTPase-activating protein-binding protein 1, RRM domain (G3BP1, Homo sapiens, UniProt Q13283)
Sequence of UniProt Q13283 (whole entry, looked up): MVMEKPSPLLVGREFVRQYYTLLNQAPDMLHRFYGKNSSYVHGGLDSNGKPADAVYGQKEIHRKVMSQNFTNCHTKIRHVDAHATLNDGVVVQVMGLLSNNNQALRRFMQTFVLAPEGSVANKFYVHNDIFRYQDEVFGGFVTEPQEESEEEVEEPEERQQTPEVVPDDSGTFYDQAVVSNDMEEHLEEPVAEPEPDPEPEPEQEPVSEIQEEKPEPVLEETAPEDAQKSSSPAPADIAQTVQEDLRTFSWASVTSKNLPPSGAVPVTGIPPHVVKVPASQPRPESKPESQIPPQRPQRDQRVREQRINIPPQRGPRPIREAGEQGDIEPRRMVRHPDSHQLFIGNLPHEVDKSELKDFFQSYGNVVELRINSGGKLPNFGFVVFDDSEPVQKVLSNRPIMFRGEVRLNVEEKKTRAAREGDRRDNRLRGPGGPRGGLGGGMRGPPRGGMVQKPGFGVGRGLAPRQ
Method: RNA Bind-n-Seq
Form: RNA
Matrix: in vitro
Tested at: 1 µM
Setting: whole 134-nt RNA, ends assumed
Together with: 150 mM KCl
Baseline: input library
Direction: higher = stronger binding
Constant ends, left off below: GGGAGUUCUACAGUCCGACGAUC … UGGAAUUCUCGGGUGUCAAGG
Strand	log2 enrichment
UUACUACCUCCGCCUUCAUUUCCGUCAGCAAUCCCGGCGCGGGCUCCCCGGCCCCCGCCAGCCCGCCUCCCCUCGCUGUGCCCGGGACCG	-0.638
UGGGAGCUGGAUUUUGUUUAUUUUUUUAGCUCAUUUCCAGGGGUGGGAAUUUUUUUUUAAUAUGUGUCAUGAAUAAAGUUGUUUUUGAAA	1.69
ACAAUGCAGGUGGGCAUCUUUGGGAAGUGGGGCAAGGGGGGGAUAGGGAGGGGGGUAACACUUUGGGAACAGGUGGUCCCAGGUCGUUUC	-0.53
CACAGACAACACGCACCCACACAGACACAUAGGGAAGGGGUUGGGAUGGGGACAGGGUGCACAGCAGGGCGGGGUAGGACCCCAGCCCCU	0.273
CAAGUCCUGUGCUACACAUCGUAUGUACCGAAUCGGGAAAGGGGAAAGGGAAAGGGAAAGUAUUAUGUUACGCCGUUCGGAUCUGCACUU	0.638
CCUCAAGUCCUGUGCUACACAUCGUAUGUACCGAAUCGGGGAGGAGGGGAGGAAAGUAUUAUGUUACGCCGUUCGGAUCUGCACUUCCAG	-0.167
AAAGGAAGUAAAAACAAAUGGAAAUGCUUCGGAUAGUGGCAGGGGUGGGGGUUGCUAAGGAAAGGGUGGGAUGGGAGUGGGUAAAGAGUU	1.38
AAGUCCUGUGCUACACAUCGUAUGUACCGAAUCGGAGGUUUUUUUGGAAAAAAAGGAAAGUAUUAUGUUACGCCGUUCGGAUCUGCACUU	-0.19
UCCUGUGCUACACAUCGUAUGUACCGAAUCGGGGAGGGGUUUUUGGGGAAAAAAAGGGGAAAGUAUUAUGUUACGCCGUUCGGAUCUGCA	0.656
GUCCUGUGCUACACAUCGUAUGUACCGAAUCGGGUGGGAAAAAAAGGGAAAAAAAGGGAAAGUAUUAUGUUACGCCGUUCGGAUCUGCAC	0.497
UAACUUUAGAGGAGGAUCUGAUGGAUAUGGCAGUGGACGUGGAUUUGGGGAUGGCUAUAAUGGGUAUGGAGGACGACCUGGAGGUGGCAA	-0.427
CCUGUGCUACACAUCGUAUGUACCGAAUCGGGGUUUUUUUGGGGUGGGGUUUUUUUGGGGAAAGUAUUAUGUUACGCCGUUCGGAUCUGC	0.353
UAACUUUAGAGGAUGAUCUGAUGGAUAUGGCAGUGGACGUGGAUUUGGGGAUGGCUAUAAUGGGUAUGGAGGAGGACCUGGAGGUGGCAA	-0.909
AAGUCCUGUGCUACACAUCGUAUGUACCGAAUCGGGAAAAGGGGAAAAGGAAAAGGGAAAGUAUUAUGUUACGCCGUUCGGAUCUGCACU	0.0911

Study 5
Target: Sal-like protein 4, full length isoform A (SALL4, Homo sapiens, UniProt Q9UJQ4, residues 1-1053)
Sequence of UniProt Q9UJQ4 (whole entry, looked up): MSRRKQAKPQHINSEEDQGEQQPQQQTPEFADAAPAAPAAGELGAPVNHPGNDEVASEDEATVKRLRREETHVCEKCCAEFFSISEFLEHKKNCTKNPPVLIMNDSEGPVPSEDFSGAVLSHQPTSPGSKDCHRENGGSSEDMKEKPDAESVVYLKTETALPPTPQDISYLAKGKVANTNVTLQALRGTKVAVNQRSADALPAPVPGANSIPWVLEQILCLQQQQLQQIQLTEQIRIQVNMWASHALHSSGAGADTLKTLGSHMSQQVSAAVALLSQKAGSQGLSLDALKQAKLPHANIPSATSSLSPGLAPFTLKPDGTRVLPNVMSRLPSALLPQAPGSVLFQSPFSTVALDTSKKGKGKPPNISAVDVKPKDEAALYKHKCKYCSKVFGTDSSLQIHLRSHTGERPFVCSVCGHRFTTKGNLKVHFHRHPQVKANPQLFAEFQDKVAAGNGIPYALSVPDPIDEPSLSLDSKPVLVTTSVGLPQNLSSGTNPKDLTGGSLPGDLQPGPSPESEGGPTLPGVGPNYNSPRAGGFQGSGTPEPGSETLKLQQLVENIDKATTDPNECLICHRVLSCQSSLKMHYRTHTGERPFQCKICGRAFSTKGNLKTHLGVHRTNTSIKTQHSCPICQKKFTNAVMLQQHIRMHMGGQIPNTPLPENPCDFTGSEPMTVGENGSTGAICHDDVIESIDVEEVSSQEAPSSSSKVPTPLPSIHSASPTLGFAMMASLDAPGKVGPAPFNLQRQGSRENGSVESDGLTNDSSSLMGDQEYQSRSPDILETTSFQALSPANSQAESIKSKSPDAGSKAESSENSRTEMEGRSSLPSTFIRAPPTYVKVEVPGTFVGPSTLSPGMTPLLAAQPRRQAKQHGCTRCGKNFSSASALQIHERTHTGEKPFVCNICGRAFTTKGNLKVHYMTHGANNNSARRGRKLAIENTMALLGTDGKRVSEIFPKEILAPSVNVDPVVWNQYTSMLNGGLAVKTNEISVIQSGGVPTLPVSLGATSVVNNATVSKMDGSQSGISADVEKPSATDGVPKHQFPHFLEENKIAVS
Method: universal PBM
Form: double-stranded DNA, one strand shown
Matrix: in vitro
Tested at: 600 nM
Setting: 8-mer, flanks averaged, mean of replicates
Direction: higher = stronger binding
Strand	E-score
CGCCCTTC	-0.361
CTGGCCCC	-0.427
ACGGTGAT	-0.0924
AGGGGAAC	-0.266
AGATCACC	-0.0421
AGAAGTCG	-0.148
AGGCTCCC	-0.331
CGGGGGGC	-0.36
AAGGCGGT	-0.121
AATTACCC	0.0736
GCAGACCC	-0.292
ACCGTCAC	-0.188
GAAAGAGA	0.0245
AGGGAACA	0.0198
GTAGGGGA	-0.189
AACTCCGT	-0.134

Some of these lines once more (study 1):
Modification	mean fluorescence intensity [a.u.]
2'F-ANA at 1 2 3 5 6 9 11 12 15	130
2'F-ANA at 2 8 11 14	153
2'F-ANA at 3 5 6 7 9 10 11 13 14 15	51.4
2'F-ANA at 1 6 7 8	229
2'F-ANA at 1 2 3 9 10 12 13 15	93.7
2'F-ANA at 2 4 5 8 11 14 15	49.4
2'F-ANA at 1 2 3 4 5 6 12 13 15	78
2'F-ANA at 1 2 6 9 10 11 14 15	50.9
2'F-ANA at 2 3 4 7 9 10 11	264
2'F-ANA at 1 4 6 9 12 13	152
2'F-ANA at 1 2 3 4 5 6 7 9 10 12 13 14 15	53.2
2'F-ANA at 3 4 9 10 11 13 14 15	177
2'F-ANA at 1 4 5 9 11 14	42.5
